{"data": "Published values collected from several papers", "note": "Each numbered part is a random draw from the data of one study; scales do not carry over between parts."}
{"data": "Study 1", "target": "Histone acetyltransferase KAT6A, both winged helices, GST fusion (KAT6A, Homo sapiens, UniProt Q92794, residues 1-181)", "method": "protein binding microarray", "molecule type": "double-stranded DNA, one strand shown", "sample": "in vitro", "concentration": "not given", "setting": "8-mer, flanks averaged, mean of 2 arrays, mostly near background", "relative to": "not given", "direction": "higher = stronger binding", "Construct (chain)": "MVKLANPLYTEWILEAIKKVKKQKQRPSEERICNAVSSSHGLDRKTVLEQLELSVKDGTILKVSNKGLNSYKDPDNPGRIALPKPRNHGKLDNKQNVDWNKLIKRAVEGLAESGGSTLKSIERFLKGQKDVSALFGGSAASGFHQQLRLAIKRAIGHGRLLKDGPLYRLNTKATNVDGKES"}
{"Sequence": "CACGCAAC", "E-score": 0.114}
{"Sequence": "GTCACAGA", "E-score": -0.109}
{"Sequence": "CACGCCGG", "E-score": 0.258}
{"Sequence": "AGGGATCC", "E-score": 0.00991}
{"Sequence": "CATATATG", "E-score": -0.0681}
{"Sequence": "ACAACGTA", "E-score": -0.19}
{"Sequence": "ACCCCATG", "E-score": -0.232}
{"Sequence": "GATAGACA", "E-score": -0.158}
{"Sequence": "CAGGTTTC", "E-score": -0.151}
{"Sequence": "AGCTAACG", "E-score": -0.00386}
{"Sequence": "TACCTAGA", "E-score": -0.202}
{"Sequence": "AAGTGCGG", "E-score": 0.0575}
{"Sequence": "CGAAGTGA", "E-score": -0.0697}
{"Sequence": "AGTAGCAG", "E-score": -0.301}
{"Sequence": "TGCAACCA", "E-score": -0.181}
{"Sequence": "CACCAACA", "E-score": -0.101}
{"Sequence": "CATGACAG", "E-score": -0.0371}
{"data": "Study 2", "target": "Sal-like protein 4, full length isoform B (SALL4, Homo sapiens, UniProt Q9UJQ4-2, residues 1-616)", "method": "universal PBM", "molecule type": "double-stranded DNA, one strand shown", "sample": "in vitro", "concentration": "not given", "setting": "8-mer, flanks averaged, mean of replicates", "direction": "higher = stronger binding"}
{"Sequence": "CCGTCTCC", "E-score": -0.276}
{"Sequence": "GTGGCGAA", "E-score": -0.113}
{"Sequence": "CGGATCAC", "E-score": -0.224}
{"Sequence": "CACATACA", "E-score": 0.21}
{"Sequence": "ATCCGATA", "E-score": 0.153}
{"Sequence": "AATACGGT", "E-score": 0.0546}
{"Sequence": "AGTATCCC", "E-score": -0.224}
{"Sequence": "GCTCTAGA", "E-score": -0.181}
{"Sequence": "AATCATGG", "E-score": 0.146}
{"Sequence": "GGTTAGAA", "E-score": -0.0158}
{"Sequence": "AGCCGTCG", "E-score": -0.228}
{"Sequence": "AACATTCA", "E-score": 0.159}
{"Sequence": "AGTGATAG", "E-score": 0.0657}
{"Sequence": "ATTTGCCC", "E-score": -0.0212}
{"Sequence": "AATAAAAA", "E-score": 0.369}
{"Sequence": "TATCCCAA", "E-score": 0.0669}
{"Sequence": "GTTGACGA", "E-score": -0.0948}
{"Sequence": "GTTGATTA", "E-score": 0.191}
{"Sequence": "GCTCTCAA", "E-score": -0.0771}
{"Sequence": "ACTTGTAG", "E-score": 0.218}
{"data": "Study 3", "target": "RING finger protein unkempt homolog, zinc fingers 1-6, GST-SBP tag (UNK, Homo sapiens, UniProt Q9C0B0, residues 30-357)", "method": "RNA Bind-n-Seq", "molecule type": "RNA", "sample": "in vitro", "concentration": "not given", "setting": "RNA with constant flanks, human and mouse sites, ends assumed", "relative to": "input RNA pool", "direction": "higher = stronger binding", "all sequences stand within": "GGGAGUUCUACAGUCCGACGAUC … CAACAGAGGAUUGAGCAUCA", "Target sequence (chain)": "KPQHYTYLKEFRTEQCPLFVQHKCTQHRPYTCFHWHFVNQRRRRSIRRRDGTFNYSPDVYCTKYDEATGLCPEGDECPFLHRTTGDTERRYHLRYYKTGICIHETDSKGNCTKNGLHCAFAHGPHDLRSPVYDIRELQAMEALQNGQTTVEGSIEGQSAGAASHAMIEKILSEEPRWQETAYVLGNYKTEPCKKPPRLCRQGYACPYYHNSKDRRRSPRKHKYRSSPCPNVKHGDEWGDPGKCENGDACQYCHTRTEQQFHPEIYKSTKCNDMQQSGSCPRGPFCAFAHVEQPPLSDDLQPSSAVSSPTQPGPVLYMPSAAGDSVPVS"}
{"Sequence": "UUGCCCAUCAGGUUUAACCUUACUUACGUCAGCCACGAUGGCGAUGAUAAGAAAAGGCCAGUGAUUGUUCACAGAGCCAUCCUGGGGUCGGUGGAAAGAAUGAUUGCCAUCCUCACAGAA", "bound/input enrichment [ratio]": 0.131}
{"Sequence": "UCGUUUGGACGUGUCAGAGAGUCGUUGCCCGUCAGGUACCACCUGCAGAAUAAGACCGACUUGGUUCAAGAUGUGGAGAUUUCUGUGGAGCCCAGUGACGCCUUCAUGUUCUCAGGCCUC", "bound/input enrichment [ratio]": 0.0492}
{"Sequence": "CCCCCAACUGCCAAUGAGAAGGCUGAUACUGAGGUUUCAGCAGCUGCUGCCAGGCCUAAGACAGGCUUUAAGGCCCAGAAUGCCACCACAAAGGGGCCAAAUGAUUACUCUCAGGCACGU", "bound/input enrichment [ratio]": 0.167}
{"Sequence": "GAACCUAUUGUGUUGAGGCUGCGAUUUUCUCUCUCCCAGUACCUAGAUGGACCAGAACCAUCCAUUGAGGUUUUCCAGCCAUCAAAUAAGGAAGGAUUUGGGCUGGGUCUUCAGUUGAAA", "bound/input enrichment [ratio]": 0.22}
{"Sequence": "UUGCCAAAUUACACCACAGAGGUAUGUUGAUUAAGCACGCUGGUCUUUCCCCUCCCAAGUUAACAUGGGCAAGUCCUGCUCAGGGUGGAGGCAGAAACGGGUGAGACUGUACCCUGCCUG", "bound/input enrichment [ratio]": 0.0685}
{"data": "Study 4", "target": "Ras GTPase-activating protein-binding protein 1, C-terminal RGG region (G3BP1, Homo sapiens, UniProt Q13283)", "method": "RNA Bind-n-Seq", "molecule type": "RNA", "sample": "in vitro", "concentration": "1 µM", "setting": "whole 134-nt RNA, ends assumed", "added": "150 mM KCl", "relative to": "input library", "direction": "higher = stronger binding", "all sequences stand within": "GGGAGUUCUACAGUCCGACGAUC … UGGAAUUCUCGGGUGUCAAGG", "UniProt Q13283, sequence (whole entry, looked up)": "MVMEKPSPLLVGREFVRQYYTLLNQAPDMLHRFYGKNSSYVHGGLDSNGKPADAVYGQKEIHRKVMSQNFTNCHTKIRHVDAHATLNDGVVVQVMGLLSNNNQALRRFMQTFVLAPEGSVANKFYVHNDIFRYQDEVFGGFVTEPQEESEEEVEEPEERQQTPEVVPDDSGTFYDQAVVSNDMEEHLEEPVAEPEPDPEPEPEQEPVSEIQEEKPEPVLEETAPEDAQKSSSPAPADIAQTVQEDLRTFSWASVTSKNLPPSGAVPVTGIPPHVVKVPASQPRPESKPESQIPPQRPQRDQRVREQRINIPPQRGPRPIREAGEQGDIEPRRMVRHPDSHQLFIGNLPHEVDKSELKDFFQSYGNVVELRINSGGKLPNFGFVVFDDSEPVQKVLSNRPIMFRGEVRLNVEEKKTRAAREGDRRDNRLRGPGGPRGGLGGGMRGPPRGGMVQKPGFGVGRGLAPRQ"}
{"Sequence": "GCAGCAAGUAAAAACAAAUGGAAAUGCUUCGGAUAGUGGCAGGGGUGGGGGUUGCUAAGGAAAGGGUGGGAUGGGAGUGGGUAAAGAGUU", "log2 enrichment": 1.77}
{"Sequence": "UGGGAGGUGGAUUUUGUUUAUUUUUUUAGCUCUUUUCCAGGGGUGGGAAUUUUUUUUUAAUAUGUGUCAUGAAUAAAGUUGUUUUUGAAA", "log2 enrichment": 2.84}
{"Sequence": "GUCCUGUGCUACACAUCGUAUGUACCGAAUCGGGGAGGGGUUUUUUUGGGGAAAGGGGAAAGUAUUAUGUUACGCCGUUCGGAUCUGCAC", "log2 enrichment": 1.75}
{"Sequence": "UCAGGUCCUUAAGUACCUUCGUAUUACUUUUAGCAGGAAAAACGGCAUGUUUUGCAUCUGGUGUGCAAUGUGAAGAGUCCUUCAAAAAUG", "log2 enrichment": -0.581}
{"Sequence": "CCUGUGCUACACAUCGUAUGUACCGAAUCGGAAAAAAAGGGAAAAAAAGGGAAAAAAAGGGAAAGUAUUAUGUUACGCCGUUCGGAUCUG", "log2 enrichment": -1.92}
{"note": "For quick reference, copied from above (study 2):"}
{"Sequence": "GTTGACGA", "E-score": -0.0948}
{"Sequence": "GTTGATTA", "E-score": 0.191}
{"Sequence": "GCTCTCAA", "E-score": -0.0771}
